# Measurements of several laboratories.
# Each line is one published result; not all experiments were run side by side. ± marks the error that the study gave.
# CHRM5: Muscarinic acetylcholine receptor M5 (CHRM5, Homo sapiens, UniProt P08912)
# UniProt P08912, sequence (whole entry, looked up): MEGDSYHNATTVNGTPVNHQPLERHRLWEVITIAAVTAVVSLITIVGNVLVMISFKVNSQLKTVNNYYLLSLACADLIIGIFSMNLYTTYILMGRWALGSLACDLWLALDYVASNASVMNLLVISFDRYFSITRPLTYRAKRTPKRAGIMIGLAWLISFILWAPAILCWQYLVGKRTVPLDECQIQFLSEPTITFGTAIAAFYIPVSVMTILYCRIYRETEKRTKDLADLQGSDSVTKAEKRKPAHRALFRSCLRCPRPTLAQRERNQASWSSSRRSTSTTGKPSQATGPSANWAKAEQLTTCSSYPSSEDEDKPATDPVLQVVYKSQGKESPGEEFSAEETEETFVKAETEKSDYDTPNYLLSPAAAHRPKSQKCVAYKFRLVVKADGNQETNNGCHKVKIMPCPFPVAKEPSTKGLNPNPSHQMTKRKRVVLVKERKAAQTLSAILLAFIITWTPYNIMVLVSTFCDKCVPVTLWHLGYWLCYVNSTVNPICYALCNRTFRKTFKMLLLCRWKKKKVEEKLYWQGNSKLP
# CASP3: Caspase-3 (CASP3, Homo sapiens, UniProt P42574)
# UniProt P42574, sequence (whole entry, looked up): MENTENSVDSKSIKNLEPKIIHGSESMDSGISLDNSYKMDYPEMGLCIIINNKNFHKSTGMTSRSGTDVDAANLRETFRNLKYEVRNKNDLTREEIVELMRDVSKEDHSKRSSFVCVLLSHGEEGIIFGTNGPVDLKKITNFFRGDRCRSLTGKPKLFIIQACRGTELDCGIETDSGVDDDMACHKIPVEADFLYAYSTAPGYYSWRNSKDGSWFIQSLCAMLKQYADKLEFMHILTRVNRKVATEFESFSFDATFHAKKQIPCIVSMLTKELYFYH
# UniProt Q9R0C9, sequence (whole entry, looked up): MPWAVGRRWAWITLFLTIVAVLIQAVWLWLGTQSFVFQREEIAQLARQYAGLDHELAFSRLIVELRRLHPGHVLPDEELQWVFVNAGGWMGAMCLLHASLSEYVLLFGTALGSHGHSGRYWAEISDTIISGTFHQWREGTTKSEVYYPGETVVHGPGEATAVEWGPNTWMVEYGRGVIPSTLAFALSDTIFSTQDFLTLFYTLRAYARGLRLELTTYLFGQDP
# UniProt P20309, sequence (whole entry, looked up): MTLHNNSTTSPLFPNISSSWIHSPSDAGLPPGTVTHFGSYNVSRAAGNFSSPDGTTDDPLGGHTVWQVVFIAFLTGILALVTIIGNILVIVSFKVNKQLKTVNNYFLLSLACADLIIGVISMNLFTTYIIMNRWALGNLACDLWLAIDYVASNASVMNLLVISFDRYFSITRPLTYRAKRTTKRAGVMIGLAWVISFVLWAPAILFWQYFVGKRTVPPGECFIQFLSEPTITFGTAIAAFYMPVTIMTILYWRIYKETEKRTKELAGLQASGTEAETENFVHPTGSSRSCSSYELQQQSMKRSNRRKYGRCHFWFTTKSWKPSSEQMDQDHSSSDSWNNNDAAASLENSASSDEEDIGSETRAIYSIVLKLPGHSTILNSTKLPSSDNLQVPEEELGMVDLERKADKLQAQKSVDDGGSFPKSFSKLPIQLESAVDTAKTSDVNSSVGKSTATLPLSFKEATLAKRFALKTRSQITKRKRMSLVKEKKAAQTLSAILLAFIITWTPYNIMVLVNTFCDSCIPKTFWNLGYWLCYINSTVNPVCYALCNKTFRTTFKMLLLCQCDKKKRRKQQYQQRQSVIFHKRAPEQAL
# UniProt Q01726, sequence (whole entry, looked up): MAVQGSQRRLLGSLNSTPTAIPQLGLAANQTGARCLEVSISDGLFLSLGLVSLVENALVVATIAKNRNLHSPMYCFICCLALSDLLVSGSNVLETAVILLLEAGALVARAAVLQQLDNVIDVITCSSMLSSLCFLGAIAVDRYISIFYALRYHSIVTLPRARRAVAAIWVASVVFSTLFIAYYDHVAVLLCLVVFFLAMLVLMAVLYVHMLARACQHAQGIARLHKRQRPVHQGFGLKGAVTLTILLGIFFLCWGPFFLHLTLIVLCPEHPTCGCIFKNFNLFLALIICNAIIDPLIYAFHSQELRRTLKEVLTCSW
# UniProt P61169, sequence (whole entry, looked up): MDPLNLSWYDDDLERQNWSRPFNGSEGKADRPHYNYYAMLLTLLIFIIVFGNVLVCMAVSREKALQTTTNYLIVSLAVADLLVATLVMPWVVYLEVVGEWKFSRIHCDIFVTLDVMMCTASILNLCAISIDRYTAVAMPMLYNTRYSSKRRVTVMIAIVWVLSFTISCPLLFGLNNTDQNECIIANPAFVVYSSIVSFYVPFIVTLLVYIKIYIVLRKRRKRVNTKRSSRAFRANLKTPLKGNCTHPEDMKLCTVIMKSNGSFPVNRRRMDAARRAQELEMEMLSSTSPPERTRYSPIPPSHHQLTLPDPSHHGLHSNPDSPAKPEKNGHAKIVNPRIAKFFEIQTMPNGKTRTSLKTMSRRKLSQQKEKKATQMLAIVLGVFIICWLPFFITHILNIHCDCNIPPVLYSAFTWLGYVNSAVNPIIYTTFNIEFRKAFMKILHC
# UniProt P11229, sequence (whole entry, looked up): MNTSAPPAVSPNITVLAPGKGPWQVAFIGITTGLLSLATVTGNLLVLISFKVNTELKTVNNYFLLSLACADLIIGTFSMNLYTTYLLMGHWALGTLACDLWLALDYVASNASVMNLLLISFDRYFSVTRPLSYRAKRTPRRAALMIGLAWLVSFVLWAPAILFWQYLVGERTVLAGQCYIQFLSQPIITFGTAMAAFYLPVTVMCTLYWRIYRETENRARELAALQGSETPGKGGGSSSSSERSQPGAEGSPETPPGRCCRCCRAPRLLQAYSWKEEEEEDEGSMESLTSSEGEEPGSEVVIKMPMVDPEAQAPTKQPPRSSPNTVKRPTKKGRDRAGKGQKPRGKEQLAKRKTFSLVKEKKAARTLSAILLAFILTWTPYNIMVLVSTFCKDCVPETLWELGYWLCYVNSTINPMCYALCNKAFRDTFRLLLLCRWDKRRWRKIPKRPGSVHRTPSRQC
# UniProt P22748, sequence (whole entry, looked up): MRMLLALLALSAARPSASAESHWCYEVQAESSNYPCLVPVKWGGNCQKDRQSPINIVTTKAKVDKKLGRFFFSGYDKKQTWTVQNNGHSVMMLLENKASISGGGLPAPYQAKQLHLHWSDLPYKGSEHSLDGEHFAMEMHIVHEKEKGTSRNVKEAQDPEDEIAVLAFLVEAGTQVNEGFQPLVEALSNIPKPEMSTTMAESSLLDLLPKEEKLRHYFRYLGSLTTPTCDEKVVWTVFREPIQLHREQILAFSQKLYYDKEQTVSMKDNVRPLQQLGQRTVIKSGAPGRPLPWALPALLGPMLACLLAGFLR
# UniProt Q9H227, sequence (whole entry, looked up): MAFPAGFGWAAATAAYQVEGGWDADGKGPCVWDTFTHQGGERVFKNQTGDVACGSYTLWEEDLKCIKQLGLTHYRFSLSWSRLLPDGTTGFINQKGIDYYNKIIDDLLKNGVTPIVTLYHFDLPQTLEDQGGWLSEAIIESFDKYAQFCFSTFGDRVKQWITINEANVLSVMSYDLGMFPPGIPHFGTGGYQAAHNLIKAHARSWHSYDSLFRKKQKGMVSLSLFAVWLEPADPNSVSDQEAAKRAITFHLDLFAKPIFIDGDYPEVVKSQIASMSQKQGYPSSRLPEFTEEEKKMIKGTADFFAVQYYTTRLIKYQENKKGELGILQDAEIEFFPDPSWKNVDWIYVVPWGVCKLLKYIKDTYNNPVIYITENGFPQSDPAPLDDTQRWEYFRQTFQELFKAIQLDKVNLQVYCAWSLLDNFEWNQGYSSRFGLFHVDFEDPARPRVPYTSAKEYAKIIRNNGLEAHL
# UniProt P30542, sequence (whole entry, looked up): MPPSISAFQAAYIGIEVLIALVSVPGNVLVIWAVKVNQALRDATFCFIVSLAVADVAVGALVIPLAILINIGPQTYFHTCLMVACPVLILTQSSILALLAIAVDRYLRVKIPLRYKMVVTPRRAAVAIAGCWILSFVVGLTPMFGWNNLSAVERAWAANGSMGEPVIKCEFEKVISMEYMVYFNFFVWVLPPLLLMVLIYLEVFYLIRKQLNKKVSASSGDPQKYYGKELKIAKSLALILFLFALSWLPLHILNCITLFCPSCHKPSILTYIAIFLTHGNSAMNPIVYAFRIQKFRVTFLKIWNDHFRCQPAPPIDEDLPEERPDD
# UniProt Q12908, sequence (whole entry, looked up): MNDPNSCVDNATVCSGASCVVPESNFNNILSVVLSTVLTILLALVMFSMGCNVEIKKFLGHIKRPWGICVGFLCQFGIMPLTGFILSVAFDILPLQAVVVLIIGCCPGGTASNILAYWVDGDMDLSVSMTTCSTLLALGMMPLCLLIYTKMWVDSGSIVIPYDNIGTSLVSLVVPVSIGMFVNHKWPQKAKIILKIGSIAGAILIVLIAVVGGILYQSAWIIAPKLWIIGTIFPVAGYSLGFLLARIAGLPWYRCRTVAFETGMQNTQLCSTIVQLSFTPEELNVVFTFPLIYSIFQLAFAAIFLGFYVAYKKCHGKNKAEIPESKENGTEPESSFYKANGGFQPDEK
# UniProt P16442, sequence (whole entry, unmodified, looked up): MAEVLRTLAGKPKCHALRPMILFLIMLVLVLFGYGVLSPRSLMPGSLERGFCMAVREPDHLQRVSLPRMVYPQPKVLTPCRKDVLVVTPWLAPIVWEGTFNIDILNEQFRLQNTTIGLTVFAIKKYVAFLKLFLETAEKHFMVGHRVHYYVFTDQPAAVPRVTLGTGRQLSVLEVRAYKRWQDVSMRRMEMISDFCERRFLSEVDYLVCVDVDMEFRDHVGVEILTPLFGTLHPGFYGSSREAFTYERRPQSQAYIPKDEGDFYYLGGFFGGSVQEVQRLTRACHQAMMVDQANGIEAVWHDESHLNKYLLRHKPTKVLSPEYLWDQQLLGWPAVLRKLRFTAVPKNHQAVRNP
Compound,target,test,test system,setting,Ki
O=c1[nH]cnc2c(CNCC(O)CP(=O)(O)O)c[nH]c12 (stereo not drawn),"Hypoxanthine-guanine phosphoribosyltransferase (Trypanosoma cruzi, UniProt Q4DGA3)",,,,170 ± 20 nM
NCc1cc(C(=O)NCCN2CCN(CCCCC3CCN(CC(=O)N4c5ccccc5NC(=O)c5ccccc54)CC3)CC2)cc(C(=O)NCCN2CCN(CCCCC3CCN(CC(=O)N4c5ccccc5NC(=O)c5ccccc54)CC3)CC2)c1,"CHRM1 (Homo sapiens, UniProt P11229)","ligand displacement, radioligand",,,2.04 nM
O=Cc1ccc(-c2cn([C@@H]3O[C@H](COP(=O)(O)OP(=O)(O)O[C@H]4O[C@H](CO)[C@H](O)[C@H](O)[C@H]4O)[C@@H](O)[C@H]3O)c(=O)[nH]c2=O)s1,"ABO (Homo sapiens, UniProt P16442, G268A/L266G)","galactosyltransferase activity, inhibitor, radiochemical",,"added: 2 µM UDP-galactose donor, 100 µM acceptor",530 nM
CCCCOc1ccc(C(=O)OCC[N+]2(C)CC=CCC2)cc1 (stereo not drawn),CHRM5,"ligand displacement, radioligand",,cell membranes,3390 nM
Cc1cc(CN2CCCC2)ccc1OCCCN1CCN(c2cccc3sccc23)CC1,"Drd2 (Rattus norvegicus, UniProt P61169)","cell-free assay, radioligand",,,94.1 nM
NC(=O)CCNC(=O)[C@H]1O[C@@H](n2cnc3c(N)ncnc32)[C@H](O)[C@@H]1O,"ADORA1 (Homo sapiens, UniProt P30542)","ligand displacement, radioligand",,cell membranes,540 nM
CC[C@H](C)[C@H](NC(C)=O)C(=O)N[C@H](C(=O)N[C@H](C(=O)N[C@H](CCN)C(=O)N[C@H](C=O)CC(=O)O)C(C)C)[C@@H](C)O,CASP3,"enzyme activity, inhibitor, fluorescence",,pH 7,> 100000 nM
COc1cc(-c2ccnc3nc(Nc4ccc(S(N)(=O)=O)cc4)nn23)cc(OC)c1OC,"CA4 (Homo sapiens, UniProt P22748)","enzyme activity, inhibitor, stopped-flow",,,1600 nM
CC(C)COCCCCCN1C[C@H](O)[C@@H](O)[C@H](O)[C@H]1CO,"GBA3 (Homo sapiens, UniProt Q9H227)","enzyme activity, inhibitor",,,128000 nM
CN(CCON=C(c1ccc(C(F)(F)F)cc1)C(F)(F)F)Cc1ccccc1 (mixture of isomers),"Sigmar1 (Rattus norvegicus, UniProt Q9R0C9)",binding,,,33.7 ± 2.64 nM
O=C1Nc2ccccc2N(C(=O)CN2CCC(CCCCN3CCN(CCOC(=O)C4c5ccccc5Oc5ccccc54)CC3)CC2)c2ccccc21,CHRM5,"ligand displacement, radioligand",,,3.39 nM
CC(=O)N[C@@H](CCC(N)=O)C(=O)N[C@@H](CC(=O)O)C(=O)N[C@H](C(=O)N[C@@H](CCCNC(=N)N)C(=O)N[C@H](C=O)CC(=O)O)[C@@H](C)O,CASP3,"enzyme activity, inhibitor, fluorescence",,pH 7,72.4 nM
CC(CCC(=O)NC(CCC(=O)Nc1ccc(Br)nc1)C(=O)O)C1CCC2C3C(O)CC4CC(O)CCC4(C)C3CCC12C (stereo not drawn),"SLC10A2 (Homo sapiens, UniProt Q12908)","taurocholate uptake, inhibitor",ASBT-MDCK,"10 min, added: taurocholate 2.5 µM",4960 nM
CC[C@H](C)[C@H](NC(=O)[C@H](CCC(N)=O)NC(=O)[C@H](CCC(=O)O)NC(=O)[C@H](CCC(=O)O)NC(=O)[C@H](CCCCN)NC(=O)[C@@H]1CCCN1C(=O)[C@H](CC(C)C)NC(=O)[C@H](CO)NC(=O)[C@H](CO)NC(=O)[C@H](CC(C)C)NC(=O)[C@@H](NC(=O)[C@H](C)NC(=O)[C@H](CO)NC(=O)[C@H](CCCNC(=N)N)NC(=O)CNC(=O)CNC(=O)[C@@H](N)CCCNC(=N)N)C(C)C)C(=O)NCC(N)=O,"MC1R (Homo sapiens, UniProt Q01726)",,HEK-293T transfected,"2 h, 37 °C, added: Eu-NDP-MSH",> 5000 nM
CCC(=O)NC1CN(CCCCC2CCN(CC(=O)N3c4ccccc4NC(=O)c4ccccc43)CC2)CCN(CCCOc2nsnc2C2=CCCN(C)C2)C1 (stereo not drawn),"CHRM3 (Homo sapiens, UniProt P20309)","ligand displacement, radioligand",,,145 nM

# Some of these lines once more:
Compound,target,test,test system,setting,Ki
O=c1[nH]cnc2c(CNCC(O)CP(=O)(O)O)c[nH]c12 (stereo not drawn),"Hypoxanthine-guanine phosphoribosyltransferase (Trypanosoma cruzi, UniProt Q4DGA3)",,,,170 ± 20 nM
CN(CCON=C(c1ccc(C(F)(F)F)cc1)C(F)(F)F)Cc1ccccc1 (mixture of isomers),"Sigmar1 (Rattus norvegicus, UniProt Q9R0C9)",binding,,,33.7 ± 2.64 nM
